Experimental data pooled from the literature.
A part holds a random share of what one study measured.

Study 1 — technique: RNAcompete; form: RNA; medium: in vitro; tested at: 20 nM; setting: 7-mer, probes averaged, single round; relative to: mean of 7-mers; direction: higher = stronger binding
Target: PABPC1L2, full length, GST fusion (mouse, UniProt A0ABA7IW68)
Residues (chain): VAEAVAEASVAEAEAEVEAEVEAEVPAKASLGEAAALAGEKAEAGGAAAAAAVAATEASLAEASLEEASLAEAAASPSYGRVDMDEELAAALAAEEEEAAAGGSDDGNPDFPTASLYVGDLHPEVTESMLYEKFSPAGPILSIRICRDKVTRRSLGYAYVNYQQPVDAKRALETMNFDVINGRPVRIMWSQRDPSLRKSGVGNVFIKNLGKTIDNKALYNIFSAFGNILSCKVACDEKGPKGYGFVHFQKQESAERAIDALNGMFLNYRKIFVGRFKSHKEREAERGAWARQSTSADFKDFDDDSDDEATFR
Oligonucleotide	7-mer Z-score
AAUACUU	0.144
CCAGUUG	-0.209
GCAUGCU	-0.0844

Study 2 — technique: protein binding microarray; form: double-stranded DNA, one strand shown; medium: in vitro; tested at: not given; relative to: not given; direction: higher = stronger binding
Target: Histone acetyltransferase KAT6A, winged helix 1, GST fusion (KAT6A, Homo sapiens, UniProt Q92794, residues 1-85)
Setting: 8-mer, flanks averaged, mean of 2 arrays, mostly near background
Residues (chain): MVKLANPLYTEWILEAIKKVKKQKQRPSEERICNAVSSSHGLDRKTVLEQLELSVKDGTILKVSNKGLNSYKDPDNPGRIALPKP
Oligonucleotide	E-score
ACTGGCAA	-0.16
CTTAAGGC	-0.00451
AGAAGCTA	-0.0698
AGAAGGTC	-0.114

Other studies, line by line
UNK zinc fingers 1-6, SBP tag: RING finger protein unkempt homolog, zinc fingers 1-6, SBP tag (UNK, Homo sapiens, UniProt Q9C0B0, residues 30-357)
UniProt Q9C0B0, sequence (30-357, looked up): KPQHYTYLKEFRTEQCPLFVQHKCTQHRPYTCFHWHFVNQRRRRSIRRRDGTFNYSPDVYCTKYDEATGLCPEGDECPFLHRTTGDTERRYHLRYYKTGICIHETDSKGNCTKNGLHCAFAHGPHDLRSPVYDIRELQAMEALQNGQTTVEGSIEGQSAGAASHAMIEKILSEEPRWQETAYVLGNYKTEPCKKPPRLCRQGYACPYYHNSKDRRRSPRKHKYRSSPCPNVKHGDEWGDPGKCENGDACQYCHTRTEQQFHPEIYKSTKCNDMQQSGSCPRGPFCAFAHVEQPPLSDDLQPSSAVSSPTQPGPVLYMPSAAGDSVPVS
Molecule	target	test	system	conditions	scale	measurement	result
GGGAGUUCUACAGUCCGACGAUCGGAUUAGGUUCGAUUCUUUGCGUGUUAAAAAAAAAAAGCAUAAAAACAUUUUUAAAAAAAUAGAAAAAUUCAGCAAACCAUUUGUAAAGUAGAAGAGGGUUUUAGGUAGAAAAGGUAUUCCAACAGAGGAUUGAGCAUCA	UNK zinc fingers 1-6, SBP tag	RNA Bind-n-Seq	RNA, in vitro	100 nM, RNA with constant flanks, vertebrate orthologous sites, ends assumed	relative to: input RNA pool, higher = stronger binding	bound/input enrichment	0.889 ratio
PhoQ, residues 284 288 289 292 302 303 MLMVEA	PhoP, residues 12 14 15 18 19 STWGI (Escherichia coli, UniProt P23836)	Sort-seq, item: YFP reporter	E. coli	PhoQ-PhoP variant library, together with: 10 µM Mg2+	relative to: high Mg2+ state, higher = stronger signaling	fold induction	13.7
GGGAGUUCUACAGUCCGACGAUCAGCAGUUAGAGUGGGCUCUUCCUCUCCAUCUCCCAUGAGGACAAAAGCCCAAAUAGAUGCCUCACACAUCUGAUGAUACUGUUCUGUUUUUGUUUUCUGCUUUUACAUAUGCAUCGGAAUCAACAGAGGAUUGAGCAUCA	UNK zinc fingers 1-6, SBP tag	RNA Bind-n-Seq	RNA, in vitro	100 nM, RNA with constant flanks, vertebrate orthologous sites, ends assumed	relative to: input RNA pool, higher = stronger binding	bound/input enrichment	0.91 ratio

Excerpt of the above (other studies, line by line):
Molecule	target	test	system	conditions	scale	measurement	result
GGGAGUUCUACAGUCCGACGAUCGGAUUAGGUUCGAUUCUUUGCGUGUUAAAAAAAAAAAGCAUAAAAACAUUUUUAAAAAAAUAGAAAAAUUCAGCAAACCAUUUGUAAAGUAGAAGAGGGUUUUAGGUAGAAAAGGUAUUCCAACAGAGGAUUGAGCAUCA	UNK zinc fingers 1-6, SBP tag	RNA Bind-n-Seq	RNA, in vitro	100 nM, RNA with constant flanks, vertebrate orthologous sites, ends assumed	relative to: input RNA pool, higher = stronger binding	bound/input enrichment	0.889 ratio
